Experimental data pooled from the literature.
Every numbered part comes from another study and shows a few of its results, in no order.

Series 1 — technique: competition protein-binding microarray; molecule type: double-stranded DNA, one strand shown; medium: in vitro; tested at: 2 µM; together with: Cbf1 competitor, 0.05 µM; direction: higher = stronger binding
Target: Phosphate system positive regulatory protein PHO4, full length, GST-tagged (PHO4, Saccharomyces cerevisiae, UniProt P07270, residues 1-312)
Setting: whole 60-bp probe, lowest competitor level
Residues (chain): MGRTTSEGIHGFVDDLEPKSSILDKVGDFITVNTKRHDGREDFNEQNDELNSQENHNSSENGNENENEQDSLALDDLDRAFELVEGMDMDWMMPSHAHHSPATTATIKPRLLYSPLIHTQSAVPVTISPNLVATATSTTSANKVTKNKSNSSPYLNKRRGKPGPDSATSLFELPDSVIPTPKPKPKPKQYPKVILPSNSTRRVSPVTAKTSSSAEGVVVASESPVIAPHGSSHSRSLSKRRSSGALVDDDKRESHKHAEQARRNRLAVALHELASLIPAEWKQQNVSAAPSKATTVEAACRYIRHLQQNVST
The fluorescence intensity of `GCAAGAAGTAACTGGCGTGTGCACAAGAATACTTGTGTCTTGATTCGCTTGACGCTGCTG` is reported as 6700 a.u.
For `GTGATATATTTGATACTTTTGAGATATCCTTGAAAGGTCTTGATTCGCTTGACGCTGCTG`, the fluorescence intensity was 3540 a.u.
The fluorescence intensity of `CCGAATGATAGCGTCAGCGTGCAAACTGTGAACGCAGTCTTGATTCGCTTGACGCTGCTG` is reported as 6550 a.u.
`AAAAGCGTCAAAAAACTCGTGTAAGAGGTCAAAAAGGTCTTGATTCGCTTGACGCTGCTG` has a fluorescence intensity of 6000 a.u.
`CAGAACGCCGCCTTCCCCGTGCGATGCAGGGTGCTAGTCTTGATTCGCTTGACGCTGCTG` has a fluorescence intensity of 8070 a.u.
`CGGGAAAGTTAAAGTACCGTGATGGGGACCGCCCTTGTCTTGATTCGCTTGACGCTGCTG` has a fluorescence intensity of 3850 a.u.
The fluorescence intensity of `AAAAGCAACTCGACCGTCGTGGGTACAATCCCCACCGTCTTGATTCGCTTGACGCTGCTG` is reported as 6800 a.u.
For `CGTCCTAGTGATTGCAACGTGGGTGCCATGAGGAAGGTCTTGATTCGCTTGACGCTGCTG`, the fluorescence intensity was 14400 a.u.
The fluorescence intensity of `CACCTCCCCCTAAATCTCGTGATGGGAGTTTCAAGTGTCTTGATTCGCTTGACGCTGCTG` is reported as 6670 a.u.
With `CCCGAACTTTTTTAGCACGTGAAAATGGAGAAGTCTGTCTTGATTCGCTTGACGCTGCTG` the fluorescence intensity was 15700 a.u.
`GTCTTGTCTCATTGTAGTGTGGGTGTCCCCACTTCAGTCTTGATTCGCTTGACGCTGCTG` gave a fluorescence intensity of 5050 a.u.
`CGTCCTAGTGATTGTCACTCGACTTCCATGAGGAAGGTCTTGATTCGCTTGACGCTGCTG` gave a fluorescence intensity of 3960 a.u.
With `TGCGCAACAACTTTTCACGTGTTATTATGTCTAGAAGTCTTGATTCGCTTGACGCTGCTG` the fluorescence intensity was 14700 a.u.
The fluorescence intensity of `CGCCCAAGGGACAATCACATGCAGAGAAGTTTACGAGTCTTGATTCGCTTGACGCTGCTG` is reported as 8220 a.u.
The fluorescence intensity of `AAATTACTAAGTTGTCACGTAACTTACCCCGTATGAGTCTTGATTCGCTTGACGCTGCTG` is reported as 4240 a.u.
`AGAATCACCCCATCTTACGTGGCAATCACCGATGATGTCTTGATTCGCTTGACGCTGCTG` gave a fluorescence intensity of 4780 a.u.
`CCTTTTCAATGAAAGCACGTTACTGAATTCAGAGAAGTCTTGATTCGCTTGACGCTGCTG` gave a fluorescence intensity of 11600 a.u.
The fluorescence intensity of `AAGACCTATTTCTCAGACGTGCTAATCTCCCGTCAAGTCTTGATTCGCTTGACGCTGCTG` is reported as 5080 a.u.
The fluorescence intensity of `ATGGTTCTAGCGAGTCACGTGCAAATTTTTAAAAATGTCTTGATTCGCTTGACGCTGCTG` is reported as 14200 a.u.
`GAGGCTTTCGATTACCATGTGCAATCTGTCTATGAAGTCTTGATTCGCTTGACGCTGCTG` has a fluorescence intensity of 9450 a.u.
`TTAAGCGACCTCCTGCCCGTGAGAGAATCAAGTAAGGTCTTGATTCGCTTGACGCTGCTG` gave a fluorescence intensity of 4780 a.u.
For `TATTTGGCCTTTTTGCACGTCGACTGGGCCATTTCCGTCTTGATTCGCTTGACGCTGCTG`, the fluorescence intensity was 4270 a.u.
The fluorescence intensity of `CCTTTGGAGCAGAGGCACCTGATAATGGAAGCGGTGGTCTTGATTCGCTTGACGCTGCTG` is reported as 3700 a.u.
`CGTCCTAGCGATTGAATAGTGGGTGCCATGAGGAAGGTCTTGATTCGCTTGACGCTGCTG` gave a fluorescence intensity of 6000 a.u.
For `TGAAAAGTTACGGATCAGGCTTTAACCACCGTAGACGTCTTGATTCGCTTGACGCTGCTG`, the fluorescence intensity was 2820 a.u.

Series 2 — technique: protein binding microarray; molecule type: double-stranded DNA, one strand shown; medium: in vitro; tested at: not given; baseline: not given; direction: higher = stronger binding
Target: Histone acetyltransferase KAT6A, winged helix 2, GST fusion (KAT6A, Homo sapiens, UniProt Q92794, residues 85-181)
Setting: 8-mer, flanks averaged, mean of 2 arrays, mostly near background
Target sequence (chain): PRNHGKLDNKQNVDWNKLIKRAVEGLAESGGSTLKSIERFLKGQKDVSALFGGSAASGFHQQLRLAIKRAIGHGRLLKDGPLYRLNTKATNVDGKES
For `CCTAGCTC`, the E-score was 0.0239.
`CGTCAGAG` gave an E-score of -0.0704.
For `AAGCACTA`, the E-score was -0.0347.
With `CCCCGGCG` the E-score was 0.189.
For `CTCGATTA`, the E-score was 0.075.
With `AGGGGACG` the E-score was 0.0153.
For `GCGGGAAC`, the E-score was 0.0521.
`AAAGGAGT` has an E-score of 0.0308.
`CCTTTACC` gave an E-score of -0.201.
For `GCACGTCC`, the E-score was -0.106.
`AATTGCTC` has an E-score of 0.0828.
The E-score of `GAGTGGTA` is reported as -0.106.
`CATCAGGG` has an E-score of 0.0827.
The E-score of `GAGTACCC` is reported as -0.122.
`AAAAGAGG` gave an E-score of -0.103.
For `TACCAGAA`, the E-score was 0.0819.
`GCAACCGA` has an E-score of 0.222.
For `ATATTGTC`, the E-score was -0.144.
For `CGACGAAG`, the E-score was 0.179.
For `AACTATTA`, the E-score was -0.0708.
The E-score of `ACCTCTGG` is reported as -0.0498.
The E-score of `GAGCCTCA` is reported as -0.126.

Series 3 — technique: RNA Bind-n-Seq; molecule type: RNA; medium: in vitro; tested at: 365 nM; baseline: no-protein control; direction: higher = stronger binding
Target: RNA binding protein fox-1 homolog 2, RRM domain, GST-SBP tag (RBFOX2, Homo sapiens, UniProt O43251-10, residues 100-194)
Setting: natural RNA segment, single round, ends assumed
Target sequence (chain): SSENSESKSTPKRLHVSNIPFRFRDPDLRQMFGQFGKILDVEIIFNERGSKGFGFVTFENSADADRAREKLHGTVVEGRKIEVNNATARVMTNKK
For `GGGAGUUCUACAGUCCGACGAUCCUUUUGCUUAUUAUAGGGUGCUCUGAGGGUCUUCUCUGUGUCCUCUGACCCAAGACAAAAUGCACAAGUCAGGAAGCACUUCCUUGUGCCCGAGCUGUGGGCCACCCUGGUGGAAUUCUCGGGUGCCAA`, “RBNS enrichment (R)” read 0.261.
`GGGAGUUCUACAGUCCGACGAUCACUGUUAGACUCUUUUCCACUUUCAACAAACUUGCAUGUCAGUUUCUGUCAUGUUUAUUUAUUGGAUUCUCUGCUGCCUGAUCUGUACAUACAUGAUCCCUCGGGUUUUGUGGAAUUCUCGGGUGCCAA`: “RBNS enrichment (R)” 0.354.
For `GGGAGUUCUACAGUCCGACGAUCGUGGCUGCGCCGCCAGGCCCCAACAAUGGGGACCCUGGGGUGGCUCCUGGCCAAGUGUUCUCUGUUUUCCUCGCACCUCCUUACACUGUGUGACCUGCAGGGCAUGAGGUUGGAAUUCUCGGGUGCCAA`, “RBNS enrichment (R)” read 0.371.
`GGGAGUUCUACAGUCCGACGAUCAAAAGUCAGGUACUCUGUUUUGUAAAAGUACUUUUAAAUUGCCUCAGUGAUACAGUAUAAAGAUAAACAGAAAUGCUGAGAUACGCUUAGCACUUGAGUUGUACAACAGAUGGAAUUCUCGGGUGCCAA` — result for “RBNS enrichment (R)”: 0.301.
Under “RBNS enrichment (R)”, `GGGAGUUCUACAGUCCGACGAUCCCUUUACCACUAUCCAUGUGAGCAUUGACAAAUCAUGGCUUAGAGGUGCUCACUGACUCGCUAAGACGACUUUGGCCCUGUUGAUGACUGGUGCUGUGCUCCAGCCUUAUUGGAAUUCUCGGGUGCCAA` is recorded as 0.296.
`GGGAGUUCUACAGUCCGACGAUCUGGGCUCCAAAUUAGCUUUACUGAUUGAACAUCCACAGAGAUGGAGGCAUUUAAUACAAAACCAGGAACUCCGAAUCCAUUGCUCUUUCCUCCUUUGCUUUCACUUCUUAUGGAAUUCUCGGGUGCCAA`: “RBNS enrichment (R)” 0.731.
`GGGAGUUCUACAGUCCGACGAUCCGGGACCCAUAGCACACCCCUUAGCGCUUGCCUAGGUUGCUGAAAACAGGGAGGCACCUGGUAUCUCGAGUGCCUGCAGUUGCAAGUAUGUUUACACCUGGUGUCCAAUUUGGAAUUCUCGGGUGCCAA` — result for “RBNS enrichment (R)”: 0.276.
`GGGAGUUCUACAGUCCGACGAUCAAGUGAAUCUUUGUGAUUUUCAUUCUAGAAAACAAUGUUUUAAAUCACCCAAAUUUAAUCACAUGUCUUUAUAUCAUACCAGAUAACUGGUGUAGUGUAUCCUUUUACUGUGGAAUUCUCGGGUGCCAA`: “RBNS enrichment (R)” 0.327.
For `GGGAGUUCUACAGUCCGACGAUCAGCGGGGCCUGGCGGGAUGGGCCACCGCCGACUUUGUACCCCCCAACCCCUGAGGAAGAUGGGGGCAAGAAGAUCACGCUCCCCGCCUGUUCCCCCGCCGCUUUUCUCCUUGGAAUUCUCGGGUGCCAA`, “RBNS enrichment (R)” read 0.384.
`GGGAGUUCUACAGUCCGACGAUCGUUUGGGGAAUGCGGCCGCAUUCCCUGAGUCACCAGGAAUGUUAAAGUCAGUGGGAACGUGACUGCCCCAACUCCUGGAAGCUGUGUCCUUGCACCUGCAUCCGUAGUUCUGGAAUUCUCGGGUGCCAA` — result for “RBNS enrichment (R)”: 0.816.
Under “RBNS enrichment (R)”, `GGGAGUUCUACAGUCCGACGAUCGAGACCAUAGUUGUCUGGUCAGAAAAAUUAUAUUAAAUUAGUAAAUUCUAGAAGCUCUUUAAAAGGGAAGUUUUCCUUCUUCUCCAAUUAUAGGAGUUGAUUUUUACUUUUGGAAUUCUCGGGUGCCAA` is recorded as 0.616.
Under “RBNS enrichment (R)”, `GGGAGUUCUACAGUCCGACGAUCCCAACACAUCAAAUAAUGCAUUGAAUAUUUAUGAAAAAGUAUAUUUAUACUCUCAGAUAGUUUGCUCCACAAAUUUUCAUUUCGUGAUUCUGUAUAUAUUGCCCUGAACUUGGAAUUCUCGGGUGCCAA` is recorded as 1.15.

Series 4 — organism: Saccharomyces cerevisiae; observed: cell growth; technique: competitive growth deep sequencing; molecule type: peptide; setting: peptide tiling library; together with: cyclin E2-Cln2 fusion; direction: direction not given
The enrichment score of `RKLHFEDEVT` is reported as 0.944.
`LRRKLFLDGNGSIS` gave an enrichment score of -1.2.
`NFETPEAETPIRSPFK` has an enrichment score of 0.685.
`NNIRKALSFDNRGEEH` has an enrichment score of -0.257.
`KVKRRLDLDIDGLQKE` gave an enrichment score of 0.301.
The enrichment score of `PPTFLSTGEIHAFLSS` is reported as -0.558.
`RRVLCFDS` has an enrichment score of 0.506.
For `SCCKRKLVVGNGPEGP`, the enrichment score was -0.243.
For `PQWPCGKHKRVLIFAS`, the enrichment score was -0.77.
The enrichment score of `RKLDLEGIGR` is reported as 0.659.
The enrichment score of `VSRNLRSSLKSSLHTL` is reported as -2.02.
`ARKRLELGNLGNPQ` gave an enrichment score of -1.12.
With `LRRQLSFSED` the enrichment score was 0.812.
The enrichment score of `PPKPLKKLRFDIEGSD` is reported as 0.494.
`GAEELEDLVHFSVSEL` has an enrichment score of 2.39.
`TTTTSPRTPPPLTVQD` has an enrichment score of 1.66.
For `GFGFLLFICKLTF`, the enrichment score was 0.164.

A few entries again (series 4):
For `PQWPCGKHKRVLIFAS`, the enrichment score was -0.77.
`NNIRKALSFDNRGEEH` has an enrichment score of -0.257.
For `GFGFLLFICKLTF`, the enrichment score was 0.164.
`LRRKLFLDGNGSIS` gave an enrichment score of -1.2.
`KVKRRLDLDIDGLQKE` gave an enrichment score of 0.301.
The enrichment score of `PPTFLSTGEIHAFLSS` is reported as -0.558.
The enrichment score of `VSRNLRSSLKSSLHTL` is reported as -2.02.
With `LRRQLSFSED` the enrichment score was 0.812.
The enrichment score of `RKLHFEDEVT` is reported as 0.944.
`TTTTSPRTPPPLTVQD` has an enrichment score of 1.66.
`GAEELEDLVHFSVSEL` has an enrichment score of 2.39.
For `SCCKRKLVVGNGPEGP`, the enrichment score was -0.243.
